Assay results collected from several papers.
Every numbered part comes from another study and shows a few of its results, in no order. “And” joins repeats or separate records; there may be more than shown.
UniProt Q9UK32, sequence (whole entry, looked up): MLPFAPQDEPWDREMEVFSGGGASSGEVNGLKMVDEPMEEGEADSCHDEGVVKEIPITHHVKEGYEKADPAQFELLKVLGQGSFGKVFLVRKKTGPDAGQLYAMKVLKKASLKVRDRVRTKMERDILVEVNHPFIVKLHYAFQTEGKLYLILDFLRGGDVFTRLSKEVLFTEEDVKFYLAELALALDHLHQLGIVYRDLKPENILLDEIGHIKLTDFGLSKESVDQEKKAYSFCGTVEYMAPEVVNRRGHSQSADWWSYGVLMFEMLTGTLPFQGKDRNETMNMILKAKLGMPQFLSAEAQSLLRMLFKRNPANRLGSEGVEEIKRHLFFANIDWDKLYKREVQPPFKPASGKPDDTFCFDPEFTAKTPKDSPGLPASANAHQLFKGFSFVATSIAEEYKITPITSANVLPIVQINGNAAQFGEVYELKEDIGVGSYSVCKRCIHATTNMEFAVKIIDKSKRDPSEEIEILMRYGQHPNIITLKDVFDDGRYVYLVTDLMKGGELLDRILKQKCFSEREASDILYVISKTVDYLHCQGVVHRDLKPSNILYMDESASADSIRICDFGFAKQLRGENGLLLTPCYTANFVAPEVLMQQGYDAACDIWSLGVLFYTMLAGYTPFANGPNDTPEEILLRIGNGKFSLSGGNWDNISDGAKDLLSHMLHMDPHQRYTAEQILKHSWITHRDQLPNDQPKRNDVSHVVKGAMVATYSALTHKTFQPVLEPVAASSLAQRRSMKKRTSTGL
UniProt Q02750, sequence (whole entry, looked up): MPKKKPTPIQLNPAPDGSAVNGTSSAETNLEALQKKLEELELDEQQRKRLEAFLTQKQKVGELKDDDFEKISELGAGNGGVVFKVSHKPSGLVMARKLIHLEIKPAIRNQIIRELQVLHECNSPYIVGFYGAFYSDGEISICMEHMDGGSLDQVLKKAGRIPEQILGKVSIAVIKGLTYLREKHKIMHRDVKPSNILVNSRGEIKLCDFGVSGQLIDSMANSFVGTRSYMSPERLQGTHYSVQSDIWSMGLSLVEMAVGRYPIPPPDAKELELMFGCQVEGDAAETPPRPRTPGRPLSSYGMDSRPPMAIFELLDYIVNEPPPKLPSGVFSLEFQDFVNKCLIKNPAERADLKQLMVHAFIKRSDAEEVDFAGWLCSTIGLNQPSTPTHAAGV
UniProt Q12852, sequence (whole entry, looked up): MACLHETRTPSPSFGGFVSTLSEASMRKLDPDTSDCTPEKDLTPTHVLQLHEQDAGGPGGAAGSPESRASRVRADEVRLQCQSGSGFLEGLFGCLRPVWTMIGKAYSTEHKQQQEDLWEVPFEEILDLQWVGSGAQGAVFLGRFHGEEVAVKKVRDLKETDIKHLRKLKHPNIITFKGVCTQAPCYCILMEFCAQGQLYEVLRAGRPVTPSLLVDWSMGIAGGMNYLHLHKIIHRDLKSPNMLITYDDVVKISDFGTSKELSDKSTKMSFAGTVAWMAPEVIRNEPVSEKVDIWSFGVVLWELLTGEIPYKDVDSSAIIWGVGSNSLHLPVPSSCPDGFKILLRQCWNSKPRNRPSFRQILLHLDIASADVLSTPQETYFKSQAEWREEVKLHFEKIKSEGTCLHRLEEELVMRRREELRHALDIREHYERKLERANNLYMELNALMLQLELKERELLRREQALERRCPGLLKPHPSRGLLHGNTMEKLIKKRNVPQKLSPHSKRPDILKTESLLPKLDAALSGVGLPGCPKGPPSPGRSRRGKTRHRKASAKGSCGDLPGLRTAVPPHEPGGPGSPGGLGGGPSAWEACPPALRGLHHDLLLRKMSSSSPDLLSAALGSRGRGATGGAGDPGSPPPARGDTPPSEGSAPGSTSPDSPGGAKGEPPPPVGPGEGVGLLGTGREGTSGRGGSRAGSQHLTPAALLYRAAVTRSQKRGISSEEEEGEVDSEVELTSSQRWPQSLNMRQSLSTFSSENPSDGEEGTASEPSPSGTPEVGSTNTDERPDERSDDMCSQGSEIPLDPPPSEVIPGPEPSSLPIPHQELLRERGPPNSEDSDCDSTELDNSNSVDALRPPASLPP
UniProt P31751, sequence (whole entry, looked up): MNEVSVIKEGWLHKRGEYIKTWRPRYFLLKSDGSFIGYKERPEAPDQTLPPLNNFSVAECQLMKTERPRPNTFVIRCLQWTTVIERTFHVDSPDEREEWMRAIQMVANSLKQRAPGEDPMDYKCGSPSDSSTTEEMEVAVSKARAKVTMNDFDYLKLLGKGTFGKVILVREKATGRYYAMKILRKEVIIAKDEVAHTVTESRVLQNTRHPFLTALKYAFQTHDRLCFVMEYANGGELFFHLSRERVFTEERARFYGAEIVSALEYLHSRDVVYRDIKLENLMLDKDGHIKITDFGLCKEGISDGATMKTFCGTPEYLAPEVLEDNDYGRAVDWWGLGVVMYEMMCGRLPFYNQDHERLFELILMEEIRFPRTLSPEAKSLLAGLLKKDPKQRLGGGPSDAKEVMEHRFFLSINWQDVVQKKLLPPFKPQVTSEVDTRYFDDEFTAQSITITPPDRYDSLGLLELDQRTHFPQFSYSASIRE
UniProt Q8N4C8, sequence (whole entry, looked up): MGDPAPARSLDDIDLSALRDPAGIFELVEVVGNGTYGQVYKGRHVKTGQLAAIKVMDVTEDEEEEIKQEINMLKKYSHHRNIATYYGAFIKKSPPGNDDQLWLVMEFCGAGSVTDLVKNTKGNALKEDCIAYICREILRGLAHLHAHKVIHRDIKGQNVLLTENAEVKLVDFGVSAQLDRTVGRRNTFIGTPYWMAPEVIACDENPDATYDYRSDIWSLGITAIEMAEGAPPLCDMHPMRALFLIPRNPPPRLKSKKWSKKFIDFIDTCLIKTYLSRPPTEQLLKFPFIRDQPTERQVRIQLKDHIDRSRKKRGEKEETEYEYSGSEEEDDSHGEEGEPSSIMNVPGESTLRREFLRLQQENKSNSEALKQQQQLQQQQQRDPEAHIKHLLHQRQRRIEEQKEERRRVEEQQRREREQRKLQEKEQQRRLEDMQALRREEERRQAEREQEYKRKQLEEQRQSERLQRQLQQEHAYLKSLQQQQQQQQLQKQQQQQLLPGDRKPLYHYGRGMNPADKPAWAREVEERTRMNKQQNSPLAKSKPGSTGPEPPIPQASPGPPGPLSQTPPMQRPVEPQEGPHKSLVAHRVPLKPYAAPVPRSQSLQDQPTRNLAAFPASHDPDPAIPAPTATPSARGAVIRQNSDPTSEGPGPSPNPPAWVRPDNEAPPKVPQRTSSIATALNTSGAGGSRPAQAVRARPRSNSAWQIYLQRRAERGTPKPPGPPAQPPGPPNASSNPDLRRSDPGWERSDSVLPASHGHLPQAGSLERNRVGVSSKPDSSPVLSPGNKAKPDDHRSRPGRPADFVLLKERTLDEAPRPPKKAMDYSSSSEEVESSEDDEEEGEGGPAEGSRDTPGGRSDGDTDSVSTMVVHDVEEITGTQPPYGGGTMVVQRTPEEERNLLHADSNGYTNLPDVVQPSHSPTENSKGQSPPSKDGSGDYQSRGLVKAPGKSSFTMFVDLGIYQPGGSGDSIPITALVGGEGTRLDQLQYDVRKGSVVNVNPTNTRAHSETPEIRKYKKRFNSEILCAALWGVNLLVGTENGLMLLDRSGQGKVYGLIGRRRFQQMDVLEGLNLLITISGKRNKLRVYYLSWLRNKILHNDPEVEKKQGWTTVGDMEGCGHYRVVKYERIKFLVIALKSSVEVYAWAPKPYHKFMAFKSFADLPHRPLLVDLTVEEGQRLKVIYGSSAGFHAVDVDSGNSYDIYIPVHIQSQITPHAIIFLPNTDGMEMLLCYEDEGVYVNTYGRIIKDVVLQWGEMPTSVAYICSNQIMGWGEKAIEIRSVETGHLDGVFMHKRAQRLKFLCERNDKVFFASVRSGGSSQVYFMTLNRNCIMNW
UniProt P51956, sequence (whole entry, looked up): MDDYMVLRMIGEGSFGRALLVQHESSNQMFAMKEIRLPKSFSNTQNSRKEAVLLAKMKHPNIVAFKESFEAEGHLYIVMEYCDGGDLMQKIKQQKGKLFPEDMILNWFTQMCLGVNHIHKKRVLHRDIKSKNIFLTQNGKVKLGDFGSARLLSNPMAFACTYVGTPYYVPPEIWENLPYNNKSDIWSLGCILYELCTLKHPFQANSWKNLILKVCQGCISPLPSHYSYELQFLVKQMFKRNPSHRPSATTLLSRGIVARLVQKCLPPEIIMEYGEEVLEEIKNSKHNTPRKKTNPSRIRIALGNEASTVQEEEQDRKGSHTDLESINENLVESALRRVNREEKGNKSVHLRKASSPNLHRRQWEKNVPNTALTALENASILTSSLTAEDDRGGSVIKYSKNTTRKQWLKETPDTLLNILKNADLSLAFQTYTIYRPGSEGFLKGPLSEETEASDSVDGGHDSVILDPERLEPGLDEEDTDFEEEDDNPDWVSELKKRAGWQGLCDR

Series 1 — effect on: cell-free assay; method: competition with immobilised ligand; concentration: 1 µM
Compound: NS(=O)(=O)c1cc(NC(=O)Cc2ccccc2)ccc1Oc1cccc(Cl)c1
target	remaining binding [%]
Phosphatidylinositol 4,5-bisphosphate 3-kinase catalytic subunit alpha isoform (PIK3CA, Homo sapiens, UniProt P42336, M1043I)	93
Mitogen-activated protein kinase kinase kinase 12 (MAP3K12, Homo sapiens, UniProt Q12852)	80
Ribosomal protein S6 kinase alpha-6, N-terminal kinase domain (RPS6KA6, Homo sapiens, UniProt Q9UK32)	84
Receptor-type tyrosine-protein kinase FLT3 (FLT3, Homo sapiens, UniProt P36888, F691L/ITD)	97
Serine/threonine-protein kinase Nek2 (NEK2, Homo sapiens, UniProt P51955)	89
Insulin receptor (INSR, Homo sapiens, UniProt P06213)	100

Series 2 — cell line: mouse MPNST tumor cells; method: high-content nuclear imaging; refers to: cell number; concentration: 10 µM; time: 12 h; setting: mean of 2 replicates; reference: plate mean; direction: higher = more cells
Structure (SMILES)	nuclei count
Nc1nc2c(c(N3CCNCC3)n1)CCC1=C2C2CCCCC2O1 (stereo not shown)	1.54 z-score
O=C(Nc1cc(C(F)(F)F)ccc1O)Nc1cc(C(F)(F)F)ccc1O	-0.954 z-score
CC1CC(C)(C)N(C(=O)CN2C(=O)c3ccccc3C2=O)c2ccccc21 (stereo not shown)	-0.21 z-score
CC(=Cc1ccc(Cl)cc1)C(C)=NO	2.13 z-score
Cc1ccc(C(=O)c2cc(O)c(O)c([N+](=O)[O-])c2)cc1	0.95 z-score
COc1cc(C(=O)NCc2ccc(OCCN(C)C)cc2)cc(OC)c1OC	1.11 z-score and 0.698 z-score
NC(=O)N[C@@H](CCC(=O)O)C(=O)O	1.57 z-score

Series 3 — effect on: enzyme activity; mode: inhibitor; concentration: 0.5 µM; reference: control
SMILES: O=C1NC(=O)C(c2c[nH]c3ccccc23)=C1c1c[nH]c2ccccc12
target	remaining activity [%]
Rho-associated protein kinase 1 (ROCK1, Homo sapiens, UniProt Q13464)	97.4
Mitogen-activated protein kinase 11 (MAPK11, Homo sapiens, UniProt Q15759)	89
Misshapen-like kinase 1 (MINK1, Homo sapiens, UniProt Q8N4C8)	83.4
Calcium/calmodulin-dependent protein kinase type IV (CAMK4, Homo sapiens, UniProt Q16566)	100
Serine/threonine-protein kinase DCLK2 (DCLK2, Homo sapiens, UniProt Q8N568)	89.3
Dual specificity mitogen-activated protein kinase kinase 1 (MAP2K1, Homo sapiens, UniProt Q02750)	95.8
cGMP-dependent protein kinase 2 (PRKG2, Homo sapiens, UniProt Q13237)	52.6
Dual specificity protein kinase CLK4 (CLK4, Homo sapiens, UniProt Q9HAZ1)	76.1
Serine/threonine-protein kinase PLK3 (PLK3, Homo sapiens, UniProt Q9H4B4)	99.9
RAC-beta serine/threonine-protein kinase (AKT2, Homo sapiens, UniProt P31751)	102
Serine/threonine-protein kinase Nek3 (NEK3, Homo sapiens, UniProt P51956)	88.2
MAP/microtubule affinity-regulating kinase 4 (MARK4, Homo sapiens, UniProt Q96L34)	95.3
Discoidin domain-containing receptor 2 (DDR2, Homo sapiens, UniProt Q16832)	101

Other studies, line by line — effect on: enzyme activity; mode: inhibitor; method: ADP detection; concentration: 10 µM
Target: Calcium/calmodulin-dependent protein kinase type II subunit alpha (CAMK2A, Homo sapiens, UniProt Q9UQM7)
UniProt Q9UQM7, sequence (whole entry, looked up): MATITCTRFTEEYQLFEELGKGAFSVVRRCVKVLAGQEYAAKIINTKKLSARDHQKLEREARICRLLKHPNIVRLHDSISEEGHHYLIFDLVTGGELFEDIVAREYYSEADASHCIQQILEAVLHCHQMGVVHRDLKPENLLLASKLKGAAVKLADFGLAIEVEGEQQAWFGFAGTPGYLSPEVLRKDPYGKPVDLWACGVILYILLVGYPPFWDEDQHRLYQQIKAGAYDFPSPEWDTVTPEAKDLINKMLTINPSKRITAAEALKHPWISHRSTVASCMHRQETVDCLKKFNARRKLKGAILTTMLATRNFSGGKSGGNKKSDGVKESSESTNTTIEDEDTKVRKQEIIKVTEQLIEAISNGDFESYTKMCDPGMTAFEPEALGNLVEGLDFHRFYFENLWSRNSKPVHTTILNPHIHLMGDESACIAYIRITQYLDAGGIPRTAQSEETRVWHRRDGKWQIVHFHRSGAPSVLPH
Compound	inhibition [%]
CCN(CC)CCNC(=O)c1c(C)[nH]c(/C=C2\C(=O)Nc3ccc(F)cc32)c1C	> 80
N#CC[C@H](C1CCCC1)n1cc(-c2ncnc3[nH]ccc23)cn1	> 80

Some of these lines once more (series 1):
target	remaining binding [%]
Serine/threonine-protein kinase Nek2 (NEK2, Homo sapiens, UniProt P51955)	89
Ribosomal protein S6 kinase alpha-6, N-terminal kinase domain (RPS6KA6, Homo sapiens, UniProt Q9UK32)	84
Mitogen-activated protein kinase kinase kinase 12 (MAP3K12, Homo sapiens, UniProt Q12852)	80
Phosphatidylinositol 4,5-bisphosphate 3-kinase catalytic subunit alpha isoform (PIK3CA, Homo sapiens, UniProt P42336, M1043I)	93
